Measurements collected from several papers.
Compare with care: the assays were run in different laboratories. ± marks the error that the study gave.
rep main protease: Replicase polyprotein 1ab, main protease (rep, Severe acute respiratory syndrome coronavirus 2, UniProt P0DTD1)

maraviroc
nuclei number (HEK-293T/ACE2; concentration not given; reference: vehicle): 98.5%

Rv1045 (Mycobacterium tuberculosis, UniProt P96356)
Km (O=c1ccn([C@@H]2O[C@H](COP(=O)(O)OP(=O)(O)OP(=O)(O)O)[C@@H](O)[C@H]2O)c(=O)[nH]1; steady-state kinetics; pH 8.5, 37 °C): 874 µM

cbh (Clostridium perfringens, UniProt P54965)
kcat/Km (CC(C)C[C@H](NC(=O)CC[C@@H](C)[C@H]1CC[C@H]2[C@@H]3[C@H](O)C[C@@H]4C[C@H](O)CC[C@]4(C)[C@H]3C[C@H](O)[C@]12C)C(=O)O; steady-state kinetics; pH 6.2, 37 °C): 15 ± 3.33 M⁻¹ s⁻¹

ω-conotoxin GVIA
inhibition (Cacna1b (Rattus norvegicus, UniProt Q02294); binding; rat; dose not given): 100%

catechin gallate
IC50 (rep main protease; enzyme activity, inhibitor; 63 min preincubation): < 10 µM

dmhA S134A (Campylobacter jejuni)
kcat (Nc1nc2c(ncn2[C@@H]2O[C@H](COP(=O)(O)OP(=O)(O)O[C@H]3O[C@H]([C@H](O)CO)[C@@H](O)[C@H](O)[C@@H]3O)[C@@H](O)[C@H]2O)c(=O)[nH]1; steady-state kinetics; pH 7.5, 30 °C): 0.23 ± 0.01 s⁻¹

rhodiosin
Kd (rep main protease; microscale thermophoresis; no preincubation): 1.72 µM

dmhA T187A (Campylobacter jejuni)
kcat/Km (Nc1nc2c(ncn2[C@@H]2O[C@H](COP(=O)(O)OP(=O)(O)O[C@H]3O[C@H]([C@H](O)CO)[C@@H](O)[C@H](O)[C@@H]3O)[C@@H](O)[C@H]2O)c(=O)[nH]1; steady-state kinetics; pH 7.5, 30 °C): 2000 ± 100 M⁻¹ s⁻¹

Some of these lines once more:
cbh (Clostridium perfringens, UniProt P54965)
kcat/Km (CC(C)C[C@H](NC(=O)CC[C@@H](C)[C@H]1CC[C@H]2[C@@H]3[C@H](O)C[C@@H]4C[C@H](O)CC[C@]4(C)[C@H]3C[C@H](O)[C@]12C)C(=O)O; steady-state kinetics; pH 6.2, 37 °C): 15 ± 3.33 M⁻¹ s⁻¹
